Measured values collected from several papers.
± gives the spread as reported.

Compound | assay | test system | setting | quantity | result
CC(=O)c1c([O-])cc(C)oc1=O.[Na+] | – | Wistar rat, female, serum | oral, 200 mg/kg, no CYP inhibitor | mean residence time | 8.01 ± 0.23 h
COc1ccc(-c2c(-c3ccc(C#N)c(F)c3)nc(N3CCC(N)CC3)n(C)c2=O)cc1F | item: Metastasis | human patients | oral, 60 mg, dose expansion | serious adverse event incidence | 0%
O=C(c1ccc(F)c(F)c1Nc1ccc(I)cc1F)N1CC(O)([C@@H]2CCCCN2)C1 | – | human patients | oral, dose not given, dose escalation, tablet | AE causing dose modification | 22%
O=C1Nc2cc3[nH]nc(-c4ccncc4)c3cc2CN1Cc1ccccc1 | item: Anemia | patients with advanced solid tumours | intravenous, dose not given | patients with grade ≥3 TEAE | 7%
COc1c(O)cc(O)c2c(=O)cc(-c3ccccc3)oc12 | – | Sprague Dawley rat, plasma | oral, 3.34 g lyophilized powder/kg, low dose | Tmax | 3.3 ± 1.4 h
Cn1c(-c2ccc(C(N)=O)cc2F)nnc1C(C)(C)Oc1c(F)cc(Cl)cc1F | – | human | oral, 1 mg, single ascending dose | musculoskeletal disorder TEAE | 0%
CO[C@H]1C[C@@H]2CC[C@@H](C)[C@@](O)(O2)C(=O)C(=O)N2CCCC[C@H]2C(=O)O[C@H]([C@H](C)C[C@@H]2CC[C@@H](OC(=O)NCCOCCOCCOCCOCCOCCOCCOCCOCCC(=O)N3CCc4cc(Cn5nc(-c6ccc7oc(N)nc7c6)c6c(N)ncnc65)ccc4C3)[C@H](OC)C2)C[C@@H](O)[C@H](C)/C=C(\C)[C@@H](O)[C@@H](OC)C(=O)[C@H](C)C[C@H](C)/C=C/C=C/C=C/1C | phase 1 dose escalation, item: neutropenia | advanced solid tumour patients | intravenous, 10 mg weekly, grade ≥3 | dose-reducing adverse events | 0%
COc1cc2c(Oc3ccc4[nH]c(C)cc4c3F)ccnc2cc1OCC1(N)CC1 | – | paediatric recurrent refractory sarcoma | 10 mg | grade 3 Headache | 0%
CC(C)(c1ccccc1)c1cc(-n2nc3ccccc3n2)c(O)c(C(C)(C)c2ccccc2)c1 | exposure assessment | human, age 16-21 years | sunscreen | mean daily dermal uptake | 0.41 ng/kg body weight/day
O=C(Nc1ccccc1)C1CCN(C(=O)Oc2cccnc2)CC1 | – | healthy women | oral, 60 mg, 7 days | adverse event Asthenia | 14.3%
C[C@]1(CO)Cc2ncn(-c3ccc(C#N)c(Cl)c3)c2C(=O)O1 | – | human | 20 mg single dose | subjects with drug-related dysgeusia | 0%
CCc1ccc(CC/C=C/c2ccc3c(c2)C(=O)CC3)cc1 | – | Sprague-Dawley rat, male, blood | oral, 30 mg/kg/day, 14 days | MCH | 20.2 pg
O.O.O.O.O.O.[Cl-].[Cl-].[Co+2] | – | Crl:CD(SD) rat female, blood | oral, 2.48 mg Co/kg/day, 90 days | red blood cell count | 8.11 ×10E6/µl
C[C@@H](NC(=O)N1C(=O)[C@H](Cc2ccnc(N)c2)[C@H]1C(=O)O)C1CCCCC1 | – | healthy adult Chinese volunteers | continuous intravenous infusion, 0.3 mg/kg/h, 5-day infusion, CTCAE 5.0 grading | incidence of moderate AEs | 0%

For quick reference, copied from above:
Compound | assay | test system | setting | quantity | result
O=C(Nc1ccccc1)C1CCN(C(=O)Oc2cccnc2)CC1 | – | healthy women | oral, 60 mg, 7 days | adverse event Asthenia | 14.3%
C[C@]1(CO)Cc2ncn(-c3ccc(C#N)c(Cl)c3)c2C(=O)O1 | – | human | 20 mg single dose | subjects with drug-related dysgeusia | 0%
